Measured values collected from several papers.
Every numbered part comes from another study and shows a few of its results, in no order.

Sample 1 — technique: protein-binding microarray; form: double-stranded DNA, one strand shown; matrix: in vitro; concentration: 0.8 µM; notes: whole 60-bp probe, no competitor; reading: higher = stronger binding
Target: Centromere-binding protein 1, full length, N-terminal tag (CBF1, Saccharomyces cerevisiae, UniProt P17106, residues 1-351)
UniProt P17106, sequence (whole entry, looked up): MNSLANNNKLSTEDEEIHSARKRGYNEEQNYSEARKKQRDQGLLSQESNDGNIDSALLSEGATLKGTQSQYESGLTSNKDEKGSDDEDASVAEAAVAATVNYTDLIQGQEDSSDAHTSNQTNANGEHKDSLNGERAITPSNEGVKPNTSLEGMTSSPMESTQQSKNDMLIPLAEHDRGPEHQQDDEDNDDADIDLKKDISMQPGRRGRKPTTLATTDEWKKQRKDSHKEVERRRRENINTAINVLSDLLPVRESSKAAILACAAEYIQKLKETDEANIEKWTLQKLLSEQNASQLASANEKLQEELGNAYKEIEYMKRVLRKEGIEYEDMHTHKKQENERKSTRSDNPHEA
For `CTAAACCTTCCCTAACACATGAAACTATTATTGTTCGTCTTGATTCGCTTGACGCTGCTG`, the fluorescence intensity was 567 a.u.
`GAATAATTTAATAAATACGTGACACAGCGTATATAGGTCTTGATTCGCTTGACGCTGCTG` has a fluorescence intensity of 763 a.u.
The fluorescence intensity of `CTAGAAATGCAACAACTCATGATGTAATAGGATTTCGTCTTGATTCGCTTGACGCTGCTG` is reported as 521 a.u.
`GAACAGTAAGGAGGTAACATCAGGTCCGTGGATTAGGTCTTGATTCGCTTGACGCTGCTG` gave a fluorescence intensity of 504 a.u.
For `GAAGCTGTTTCTAATCACGTCTATCTAATTCATTAGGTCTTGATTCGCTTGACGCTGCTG`, the fluorescence intensity was 753 a.u.
The fluorescence intensity of `GAATTGATCAATCTTTTCGTCACCTTTTCTTCTTAGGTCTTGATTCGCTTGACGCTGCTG` is reported as 526 a.u.
`CTATCCTTTCTCTTCTACGTCACAGTACATCTCTTCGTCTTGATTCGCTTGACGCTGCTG` has a fluorescence intensity of 673 a.u.
For `GAAATATTGGCCGCGCTGATGACGAACGACATTTAGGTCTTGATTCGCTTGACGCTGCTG`, the fluorescence intensity was 504 a.u.
With `CTATCCTTTTCTGGTCACGTGGTCTTAGAACACTTCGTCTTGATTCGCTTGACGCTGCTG` the fluorescence intensity was 27500 a.u.

Sample 2 — technique: protein binding microarray; form: double-stranded DNA, one strand shown; matrix: in vitro; concentration: not given; reference: not given; reading: higher = stronger binding
Target: Histone acetyltransferase KAT6A, winged helix 2, GST fusion (KAT6A, Homo sapiens, UniProt Q92794, residues 85-181)
Notes: 8-mer, flanks averaged, mean of 2 arrays, mostly near background
Target sequence (chain): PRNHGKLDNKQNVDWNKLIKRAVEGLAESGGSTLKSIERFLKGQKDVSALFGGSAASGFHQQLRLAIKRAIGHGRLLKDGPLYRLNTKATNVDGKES
For `GCGTCCTA`, the E-score was 0.0443.
`AGGACTGC` gave an E-score of -0.0796.
`GTTATGCA` has an E-score of -0.148.
`CAATAATG` gave an E-score of -0.195.
`GAGCGATC` has an E-score of -0.0887.
With `GTATCCTA` the E-score was 0.00535.
For `AGCTTTCG`, the E-score was -0.0314.
`GTAAGCAA` has an E-score of 0.126.
For `ATTGCCAG`, the E-score was -0.0217.
`CAGTTTAA` gave an E-score of -0.0899.

Sample 3 — technique: protein-binding microarray; form: double-stranded DNA, one strand shown; matrix: in vitro; concentration: 250 nM; notes: 60-bp whole probe; together with: salmon DNA 0.4 mg/ml; reference: random background probes; reading: higher = stronger binding; shared flanks, not repeated: GCCTAGCAC … GTCTTGATTCGCTTGACGCTGCTG
Target: Interferon regulatory factor 5, full length, phosphomimetic (IRF5, Homo sapiens, UniProt Q13568-2, residues 1-514, K96S/S451D/S453D/S456D/S462D)
`TTAGGTATCGGGACTGGGTTAGTGCTA` has a log fluorescence of 1.63 z-score.
For `GACGGTCTCCTTCTCTTGACGTGCTAG`, the log fluorescence was -0.108 z-score.
With `GACGGACTGTGACTGGGGACGTGCTAG` the log fluorescence was -0.487 z-score.
With `TCACATTTACATTTTAGACTGTGCTAG` the log fluorescence was 0.927 z-score.
`TTAGGTTTCGGGTTTCGATTAGTGCTA` has a log fluorescence of 9.78 z-score.
With `GTTACTTTCTACTTCTCTTTGTGCTAG` the log fluorescence was 5.43 z-score.
For `GTCGGTATCCTACTGCTGACGTGCTAG`, the log fluorescence was 0.197 z-score.
With `ATAGATATCGGGACTGGATTAGTGCTA` the log fluorescence was 1.22 z-score.
With `AGTGGTATAGCACTAAGGGAGTGCTAG` the log fluorescence was -0.191 z-score.
With `TTAGATAACAGTATCGATTAGTGCTAG` the log fluorescence was 6.59 z-score.
`TCAATTCTCAGCCCTGCGACTGTGCTA` has a log fluorescence of 0.0182 z-score.
`CACGGTTTCGACTTTCGGGACGTGCTA` gave a log fluorescence of 8.41 z-score.
With `TGAGGTCTCCTTTTCCTTTAGTGCTAG` the log fluorescence was -0.229 z-score.
With `GACGATTTCAGTTCCTAGACGTGCTAG` the log fluorescence was 1.05 z-score.

Mixed results
With `PhoQ, residues 284 288 289 292 302 303 GTAMQF` the fold induction was 16.5 (PhoP, residues 12 14 15 18 19 NQCAL (Escherichia coli, UniProt P23836); Sort-seq, measured: YFP reporter; E. coli; PhoQ-PhoP variant library, together with: 10 µM Mg2+; reference: high Mg2+ state, higher = stronger signaling).

For quick reference, copied from above (sample 1):
The fluorescence intensity of `GAATTGATCAATCTTTTCGTCACCTTTTCTTCTTAGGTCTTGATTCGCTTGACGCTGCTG` is reported as 526 a.u.
For `GAAATATTGGCCGCGCTGATGACGAACGACATTTAGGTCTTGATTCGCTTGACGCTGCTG`, the fluorescence intensity was 504 a.u.
The fluorescence intensity of `CTAGAAATGCAACAACTCATGATGTAATAGGATTTCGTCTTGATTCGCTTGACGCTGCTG` is reported as 521 a.u.
`GAACAGTAAGGAGGTAACATCAGGTCCGTGGATTAGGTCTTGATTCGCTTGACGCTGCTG` gave a fluorescence intensity of 504 a.u.
With `CTATCCTTTTCTGGTCACGTGGTCTTAGAACACTTCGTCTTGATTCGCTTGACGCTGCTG` the fluorescence intensity was 27500 a.u.
